Experimental data from different studies.
Lines come from different studies, so protocols differ. Several values in a cell are separate wells, animals, samples, runs or records. Numbers after ± are the reported error.

Compound	target	assay	system	conditions	how to read	endpoint	value
NCCc1ccc(O)cc1	SAR11_0271 Candidatus Pelagibacter sp.	differential scanning fluorimetry		concentration not given	higher = stronger binding	ΔTm	2.15 °C and 3.85 °C
COc1cc2c3c(n(CCCNCCO)c(=O)c2cc1OC)-c1cc2c(cc1C3=O)OCO2	MYC G-quadruplex DNA	FRET melting		2.0 µM, pH 7.0, added: K+ 10 mM		ΔTm	27.2 ± 2.5 °C
C[C@H](C(=O)N[C@H]1COc2ccccc2[C@@H]1S(C)(=O)=O)c1ccc(F)cc1	AMPA receptor, rat	binding		10 µM, Eurofins selectivity panel		inhibition	-4%
CCc1ccc(O)cc1	Aedes aegypti OR13 with Orco	agonist, two-electrode voltage clamp	Xenopus oocytes			EC50	170 nM
COc1cc(Nc2ncc(F)c(Nc3ccc4c(n3)NC(=O)C(C)(C)O4)n2)cc(OC)c1OC	SKCa potassium channel					IC50	> 10000 nM
CCC(C)Nc1c([N+](=O)[O-])cc(C(C)(C)C)cc1[N+](=O)[O-] (stereo not drawn)	anti-compound mouse monoclonal antibody	antibody binding, indirect competitive ELISA		pH 7.4, 1% methanol, added: coating antigen 0.25 µg/mL		IC50	0.385 ng/mL
Nc1ncnc2c1ncn2[C@@H]1O[C@H](COP(=O)(O)OP(=O)(O)OP(=O)(O)O)[C@@H](O)[C@H]1O	purinergic P2Y receptor	radioligand binding				IC50	19 nM
Oc1cccc(N2[C@@H]3CC[C@H]2CN(CCCc2ccccc2)C3)c1	mu opioid receptor	Gi1 activation, agonist, TRUPATH BRET			relative to: DAMGO	Emax	63.3%
NCCc1ccccc1	SAR11_0271 Candidatus Pelagibacter sp.	differential scanning fluorimetry		concentration not given	higher = stronger binding	ΔTm	4.66 °C
CC(=O)C1C(=O)c2ccccc2C1=O	FXR		HEK293 cells	concentration not given		activity	inactive
COc1ncccc1-c1cnn2ccc(N3CCN(C(=O)OC(C)C)CC3)nc12	PDE3	inhibitor				IC50	11000 nM
COc1cccc([C@]2(C)CCN(C[C@@H](NC(=O)[C@H]3Cc4ccc(O)cc4CN3)C(C)C)C[C@@H]2C)c1	kappa opioid receptor	antagonist	Long-Evans rat	subcutaneous, 30 mg/kg, 1 week after dosing, added: U-50488	relative to: U-50488 alone	reversal of U-50488 diuresis	-98%
O=C(Nc1cccnn1)N1CCN([C@@H]2CCOc3cc(C(F)(F)F)ccc32)CC1	GABA transporter	binding		20 µM		inhibition	-7%
c1ccc(C(NCCNC(c2ccccc2)c2ccccc2)c2ccccc2)cc1	GABAA central, rat	binding		10 µM, Eurofins selectivity panel, added: flunitrazepam		inhibition	-21%
C[N+](C)(C)CCOP(=O)(O)O	SAR11_0271 Candidatus Pelagibacter sp.	differential scanning fluorimetry		concentration not given	higher = stronger binding	ΔTm	3.48 °C
CN(C)C(=O)c1cc2cnc(Nc3ccc(C(=O)NCCCCCCOc4cccc5c4C(=O)N(C4CCC(=O)NC4=O)C5=O)cc3)nc2n1C1CCCC1 (stereo not drawn)	N-Myc (human)	degrader, immunoblotting, measured: N-Myc	Kelly	4 h		DC50	229 nM
COc1nc(NC(C)C)nc(NC(C)C)n1	FXR	Shp mRNA induction, agonist, qPCR, measured: Shp	Oryzias latipes, larvae	10 µM, 48 h	relative to: maximal induction by reference agonist	Emax	65.5%
CN1CCN(c2ccc(Nc3nccc(-c4ccccc4)n3)cc2C(F)(F)F)CC1	human FLT3 ITD			10000 nM	relative to: control	remaining binding	0.65%

Some of these lines once more:
Compound	target	assay	system	conditions	how to read	endpoint	value
Nc1ncnc2c1ncn2[C@@H]1O[C@H](COP(=O)(O)OP(=O)(O)OP(=O)(O)O)[C@@H](O)[C@H]1O	purinergic P2Y receptor	radioligand binding				IC50	19 nM
Oc1cccc(N2[C@@H]3CC[C@H]2CN(CCCc2ccccc2)C3)c1	mu opioid receptor	Gi1 activation, agonist, TRUPATH BRET			relative to: DAMGO	Emax	63.3%
